# Measurements of several laboratories.
# Numbered parts are unrelated; each lists some results of a single study. Positions count from the first letter of the parent shown.

# Set 1
# Target: UBE2O UBC core domain (UniProt Q9C0C9)
# Chain of UniProt Q9C0C9 (whole entry, looked up): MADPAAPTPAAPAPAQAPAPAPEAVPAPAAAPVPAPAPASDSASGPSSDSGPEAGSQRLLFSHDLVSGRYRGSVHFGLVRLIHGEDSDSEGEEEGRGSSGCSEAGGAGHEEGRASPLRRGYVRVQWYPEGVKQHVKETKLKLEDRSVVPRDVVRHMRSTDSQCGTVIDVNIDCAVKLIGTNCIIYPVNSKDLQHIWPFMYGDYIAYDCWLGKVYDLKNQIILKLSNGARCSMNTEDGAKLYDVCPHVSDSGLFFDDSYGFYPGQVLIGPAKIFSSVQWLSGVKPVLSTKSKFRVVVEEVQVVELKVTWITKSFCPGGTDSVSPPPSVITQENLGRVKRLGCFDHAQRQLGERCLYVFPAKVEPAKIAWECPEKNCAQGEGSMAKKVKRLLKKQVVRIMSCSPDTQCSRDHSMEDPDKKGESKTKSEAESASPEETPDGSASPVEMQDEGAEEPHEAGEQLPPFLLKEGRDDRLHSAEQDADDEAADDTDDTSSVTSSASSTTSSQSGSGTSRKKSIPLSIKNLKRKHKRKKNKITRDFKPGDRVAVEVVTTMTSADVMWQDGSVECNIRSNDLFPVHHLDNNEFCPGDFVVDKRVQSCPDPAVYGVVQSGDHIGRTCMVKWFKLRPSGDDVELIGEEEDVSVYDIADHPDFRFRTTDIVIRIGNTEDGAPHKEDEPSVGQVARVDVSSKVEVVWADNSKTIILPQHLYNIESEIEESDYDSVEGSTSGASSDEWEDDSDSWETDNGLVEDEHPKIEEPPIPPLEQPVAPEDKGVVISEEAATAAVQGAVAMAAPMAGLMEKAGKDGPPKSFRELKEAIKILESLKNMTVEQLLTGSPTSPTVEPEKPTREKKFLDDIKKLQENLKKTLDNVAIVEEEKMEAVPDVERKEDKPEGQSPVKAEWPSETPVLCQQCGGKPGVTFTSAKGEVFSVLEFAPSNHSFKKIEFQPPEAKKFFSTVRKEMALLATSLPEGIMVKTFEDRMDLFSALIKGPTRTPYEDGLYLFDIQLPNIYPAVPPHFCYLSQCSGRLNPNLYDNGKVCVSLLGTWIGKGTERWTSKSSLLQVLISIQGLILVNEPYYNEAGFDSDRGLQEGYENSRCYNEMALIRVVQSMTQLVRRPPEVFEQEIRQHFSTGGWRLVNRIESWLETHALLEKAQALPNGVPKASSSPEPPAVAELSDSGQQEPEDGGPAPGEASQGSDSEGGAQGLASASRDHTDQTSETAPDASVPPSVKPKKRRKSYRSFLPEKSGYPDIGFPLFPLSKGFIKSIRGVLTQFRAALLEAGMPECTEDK
# Technique: yeast two-hybrid
# Medium: yeast
# Setting: mostly zero background
# Reference: not given
# Reading: higher = stronger interaction
# B1: RNF31 RING domain (UniProt Q96EP0); chain AFLRRLLAQECAVCGWALPHNRMQALTSCECTICPDCFRQHFTIALKEKHITDMVCPACGRPDLTDDTQLL
# B2: RNF187 RING domain (UniProt Q5TA31); chain ALPAGPAEAACALCQRAPREPVRADCGHRFCRACVVRFWAEEDGPFPCPECADDCWQRAVEP
# B3: RNF122 RING domain (UniProt Q9H9V4); chain AKKLQLYGQTCAVCLEDFKGKDELGVLPCQHAFHRKCLVKWLEVRCVCPMCNKPIASPSEAT
# B4: TRIM37 RING domain (UniProt O94972); chain SVESIAEVFRCFICMEKLRDARLCPHCSKLCCFSCIRRWLTEQRAQCPHCRAPLQLRELVN
# B5: MKRN2 RING domain (UniProt Q9H000); chain FAFQASQDKVCSICMEVILEKASASERRFGILSNCNHTYCLSCIRQWRCAKQFENPIIKSCPECRVISEFVIPSV
# B6: DEF8 RING domain (UniProt Q6ZN54); chain AGRLGCSLTEIHTLFAKHIKLDCERCQAKGFVCELCREGDVLFPFDSHTSVCADCSAVFHRDCYYDNSTTCPKCARLSLRK
# B7: TRIM60 RING domain (UniProt Q495X7); chain ALVNLQEESSCPICLEYLKDPVTINCGHNFCRSCLSVSWKDLDDTFPCPVCRFCFPYKSFRR
Molecule,lacZ reporter activity
B1 (RNF31 RING domain),0
B2 (RNF187 RING domain),0
B3 (RNF122 RING domain),0
B4 (TRIM37 RING domain),0
YCEMGSTFQLCKICAENDKDVKIEPCGHLMCTSCLTAWQESDGQGCPFCRCEIKGTEPII (CBLB RING domain (UniProt Q13191)),0
B5 (MKRN2 RING domain),0
B6 (DEF8 RING domain),0
B7 (TRIM60 RING domain),0

# Set 2
# Target: PABPC1L2, full length, GST fusion (mouse, UniProt A0ABA7IW68)
# Technique: RNAcompete
# Molecule type: RNA
# Medium: in vitro
# Concentration: 20 nM
# Setting: 7-mer, probes averaged, single round
# Reference: mean of 7-mers
# Reading: higher = stronger binding
# Construct (chain): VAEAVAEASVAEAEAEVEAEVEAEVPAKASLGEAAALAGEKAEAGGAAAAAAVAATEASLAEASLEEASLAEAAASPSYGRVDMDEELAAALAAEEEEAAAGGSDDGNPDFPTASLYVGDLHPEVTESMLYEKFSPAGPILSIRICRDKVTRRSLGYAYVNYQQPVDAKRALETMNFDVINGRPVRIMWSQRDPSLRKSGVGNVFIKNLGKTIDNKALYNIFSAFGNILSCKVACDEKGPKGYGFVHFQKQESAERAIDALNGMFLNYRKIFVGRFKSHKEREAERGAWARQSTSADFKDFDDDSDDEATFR
Oligonucleotide,7-mer Z-score
CUUACUA,-0.255
CAAGGAC,0.263
CAAAGUC,0.135
UCUUUAA,0.276
GGCUAUC,0.000733
GCAGCUG,-0.148
AAGUUGU,0.0116
AGGGUCG,0.111
GCUCGGU,-0.219
AGCGGUU,0.0116
AAAGUAC,1.4
AAAGGCU,0.742
UUGUAAC,-0.264
AGGUGAG,0.0787
GUACCAG,-0.248
GUCAAAU,-0.206

# Set 3
# Target: ABI1, truncated, D143A, DHFR fusion (Arabidopsis thaliana)
# Technique: DHFR PCA, deep sequencing
# Medium: yeast
# Setting: methotrexate growth selection, single substitutions
# Added: (+)-ABA 710 µM
# Reference: wild-type fitted maximum
# Reading: higher = stronger binding
# Parent: PYL1, truncated, DHFR fusion (Arabidopsis thaliana); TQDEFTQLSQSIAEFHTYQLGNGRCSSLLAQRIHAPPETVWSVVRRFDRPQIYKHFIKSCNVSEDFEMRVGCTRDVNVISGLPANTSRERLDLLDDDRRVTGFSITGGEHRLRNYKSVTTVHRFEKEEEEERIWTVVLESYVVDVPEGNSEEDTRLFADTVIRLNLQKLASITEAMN
Variant,relative binding score [%]
E67P,98.4
G108M,40.8
D48E,94.2
N77F,99.4
K126W,96.7
D48I,33.1
G148W,75.9
S104E,76.8
T101M,113
I162A,59.3
V142Y,86.9
Q167T,98.3
V121E,6.25
D153N,72.8
M68Q,95.5
A175V,96.3
D96R,40
L94K,51.4
H16P,25.7
E127Q,114
G102L,0.418
L8S,81.7
T120L,-0.975

# Set 4
# Target: RNA binding protein fox-1 homolog 2, RRM domain, GST-SBP tag (RBFOX2, Homo sapiens, UniProt O43251-10, residues 100-194)
# Technique: RNA Bind-n-Seq
# Molecule type: RNA
# Medium: in vitro
# Concentration: 365 nM
# Setting: natural RNA segment, single round, ends assumed
# Reference: no-protein control
# Reading: higher = stronger binding
# Construct (chain): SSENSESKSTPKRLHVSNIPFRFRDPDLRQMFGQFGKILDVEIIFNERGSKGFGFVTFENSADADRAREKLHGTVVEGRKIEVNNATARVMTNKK
Oligonucleotide,RBNS enrichment (R)
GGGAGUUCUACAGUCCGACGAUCGCUGUCUGCCAGGUCACCACUCUGAUACCCAGCGUUCUCUGGUUGCUCUCUGUUUCCAGUGAUUAAACACCCAUAACCAACGUUGCUGUCUGCUGCCACUGACAGUCCAGUGGAAUUCUCGGGUGCCAA,0.283
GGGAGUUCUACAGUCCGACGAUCUGUCCUUUCCUUCUAAUUUUAGAAGUUCUGUUGAGAAACACAAACUGCAAAUUUAAGUCAGCAUUUUUAGGACAGAGUGCUUGGAGAAGUGCUUUUUUGCAGUCUCCUUUUGGAAUUCUCGGGUGCCAA,0.344
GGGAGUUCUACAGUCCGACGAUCUUGGUUUUAAACUUUCUUAUUGCCUUUGGCUGUUGAUUAGUACAGUACAAGUGCGAUUUCAAAAAGAUCUUGAAAGUAAUAUAUUUAAUCAAUUAAAAUGUUUAUCUGUAUGGAAUUCUCGGGUGCCAA,0.434
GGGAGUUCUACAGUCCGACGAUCGGUGGCUAAAUACCUAGCCUUUUACAUGUAAACCUGUCUGCAAAAUUAGCUUUUUUAAAAAAAAAAAAAAAAAAAUUGGGGGGGUUAAUUUAUCAUUCAGAAAUCUUGCAUGGAAUUCUCGGGUGCCAA,2.22
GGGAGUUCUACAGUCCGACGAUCCUUUGAUUACAAAUUUGUCCUUGCACAUGUUAAGAUGAAUUAUCUCCUAAAAAUAUCAUUGUUCUUGGGAGCAGUGUAUGUUACUUUACAUAGCAGCGGUUCCUGUCAUGUGGAAUUCUCGGGUGCCAA,0.366
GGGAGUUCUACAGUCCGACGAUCGAGGAAGACCUGAUGGGGUCUCCUAUUCCAGGGAAUAAGCCAAAUUAACACUAAAAACGGAUCAAAGCUCCCACGCCAGUCCACUAGGGCCCCAGUAGUUGACAGCCUUGUGGAAUUCUCGGGUGCCAA,0.742
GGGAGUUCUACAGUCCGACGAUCUGUUUCAUUCCCGUGCUUCUGUUCUGAAGUCCUGGAAUACAGUUUUCAGUGUAAUUAAUUCAACUGCACUUAACACUAAUGUCCGUGUUGGUAUAGAAAUGUCUAAAUCCUGGAAUUCUCGGGUGCCAA,0.237
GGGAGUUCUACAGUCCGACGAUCAUCUUCAGACCCAAUAGCUCUAAUUUUAACAUUUCUACCCAAUAAGAGGCUCUGUUUUCCACUGAAGCUUUGUUGGAGAAAGAGAAUAUGAAAAUUACACAUUUUAUAAUUGGAAUUCUCGGGUGCCAA,0.376

# Set 5
# Target: Prothrombin, mature alpha-thrombin (F2, Homo sapiens, UniProt P00734)
# Technique: aptamer microarray, sandwich
# Molecule type: DNA with 2'F-ANA
# Medium: in vitro
# Concentration: 200 nM
# Setting: whole 15-mer aptamer, many near background
# Added: Cy3 exosite-II aptamer, 400 nM
# Reading: higher = stronger binding
# Oligonucleotide: GGTTGGTGTGGTTGG
Modification,mean fluorescence intensity [a.u.]
2'F-ANA at 2 3 4 7 10 11 12 13 15,239
2'F-ANA at 1 5 9 10 11 12 14,46.9
2'F-ANA at 2 4 5 6 10 12 13,48.3
2'F-ANA at 1 2 7 10 12 13 15,83.2
2'F-ANA at 1 2 3 4 5 6 7 8 14 15,56.6
2'F-ANA at 5 6 7 10 11 12 13 15,67.8
2'F-ANA at 1 3 4 6 7 8 9 10 14,60.7
2'F-ANA at 1 5 8 11 12 13 14,72
2'F-ANA at 3 4 9 11,620
2'F-ANA at 1 3 4 9 10 11 12 13 14,51.3
2'F-ANA at 1 2 3 5 7 8 9 10 11 12 14 15,49.2
2'F-ANA at 2 5 6 7 9 12 15,133
2'F-ANA at 2 3 4 5 6 7 8 9 13 14 15,52.4
2'F-ANA at 9 10 13 14 15,99.5
2'F-ANA at 1 3 5 13 14,59.1
2'F-ANA at 1 3 4 7 9 10 11 14 15,54.3
2'F-ANA at 2 4 5 8 9,86.6
2'F-ANA at 1 2 4 5 6 8 9 10 13 14,48
2'F-ANA at 2 5 6 7 8 9 10 13 15,43.8
2'F-ANA at 3 4 5 12 13 14,59.9
2'F-ANA at 1 3 8 9 12 15,605

# Some of these lines once more (set 5):
Modification,mean fluorescence intensity [a.u.]
2'F-ANA at 3 4 9 11,620
2'F-ANA at 1 3 4 9 10 11 12 13 14,51.3
2'F-ANA at 1 2 3 5 7 8 9 10 11 12 14 15,49.2
2'F-ANA at 2 5 6 7 9 12 15,133
2'F-ANA at 2 3 4 5 6 7 8 9 13 14 15,52.4
2'F-ANA at 9 10 13 14 15,99.5
